Results from different studies.
Each numbered part is a random draw from the data of one study; scales do not carry over between parts.

Block 1 — method: RNA Bind-n-Seq; form: RNA; matrix: in vitro; tested at: 200 nM; notes: whole 134-nt RNA, ends assumed; together with: 150 mM KCl; baseline: input library; direction: higher = stronger binding
Target: Ras GTPase-activating protein-binding protein 1, full length (G3BP1, Homo sapiens, UniProt Q13283)
Sequence of UniProt Q13283 (whole entry, looked up): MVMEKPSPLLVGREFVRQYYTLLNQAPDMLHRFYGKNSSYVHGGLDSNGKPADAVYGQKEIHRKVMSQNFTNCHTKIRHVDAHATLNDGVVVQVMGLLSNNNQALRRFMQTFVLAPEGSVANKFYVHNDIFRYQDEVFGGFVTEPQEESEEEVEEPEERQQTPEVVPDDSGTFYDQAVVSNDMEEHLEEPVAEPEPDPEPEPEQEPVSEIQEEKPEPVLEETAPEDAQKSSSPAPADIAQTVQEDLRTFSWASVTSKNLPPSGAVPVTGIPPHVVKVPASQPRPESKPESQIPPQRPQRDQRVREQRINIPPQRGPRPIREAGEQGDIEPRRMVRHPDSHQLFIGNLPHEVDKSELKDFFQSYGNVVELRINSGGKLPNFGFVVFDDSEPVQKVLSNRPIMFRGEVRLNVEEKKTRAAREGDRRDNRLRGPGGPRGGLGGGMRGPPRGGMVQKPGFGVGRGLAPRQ
Shared flanks, not repeated: GGGAGUUCUACAGUCCGACGAUC … UGGAAUUCUCGGGUGUCAAGG
Oligonucleotide	log2 enrichment
GCAGGAAGUAAAAACAAAUGGAAAUGCUUCGGAUAGUGGCAGGGGUGGGGGUUGCUAAGGAAAGGGUAAAAUGGGAGUGGGUAAAGAGUU	0.667
GCAGGAAGUAAAAACAAAUGGAAAUGCUUCGGAUAGUGGCAGGGUUGGGGGUUGCUAAGGAAAGGGUGGGAUGGGAGUGGGUAAAGAGUU	0.82
UCCUGUGCUACACAUCGUAUGUACCGAAUCGGGUUUUUUUGGUUUUUUUGGUUUUUUUGGAAAGUAUUAUGUUACGCCGUUCGGAUCUGC	-0.438
CUGUGCUACACAUCGUAUGUACCGAAUCGGGGAAAAAAAGGGGUUUUUUUGGGGAAAGGGGAAAGUAUUAUGUUACGCCGUUCGGAUCUG	0.042
AAGUCCUGUGCUACACAUCGUAUGUACCGAAUCGGGAAAAAGGGAAAGGGUUUGGGAAAGUAUUAUGUUACGCCGUUCGGAUCUGCACUU	0.0811
AAGUCCUGUGCUACACAUCGUAUGUACCGAAUCGGAAAAGGGAAAAGGGAAAAGGGGAAAGUAUUAUGUUACGCCGUUCGGAUCUGCACU	-0.568
GCAGGAAGUAAAAACAAAUGGAAAUGCUUCGGAUAGUGGCAGGGGUGGGGGUUGCUAAGGAAAGGGCGGGAUGGGAGUGGGUAAAGAGUU	0.944
CACAGACAACACGCACCCACACACACACAGAGGGAAGGGGUUGGGAUGGGGACAGGGUGCACAGCAGGGCGGGGUAGGACCCCAGCCCCU	1.44
UUACGAUUAUAUCACCCGGACACACAUCAUGCUUAAGAUUCAACUGGGAGCAUACCAGGGAUGCUCUCUAACGUAAUCAAGGGAAGGUUC	-1.48
AUUAUAGACUUGAUCAAAACACAGGAAAAGGCAACUCCCAGGAACUUUCCGCCACGAUUCCAGGAUGGAUAUUACAGCUGACAGCUUUUC	-0.279

Block 2 — method: competition protein-binding microarray; form: double-stranded DNA, one strand shown; matrix: in vitro; tested at: 2 µM; together with: Pho4 competitor, 0.05 µM; direction: higher = stronger binding; shared flanks, not repeated: … GTCTTGATTCGCTTGACGCTGCTG
Target: Centromere-binding protein 1, full length, His-tagged (CBF1, Saccharomyces cerevisiae, UniProt P17106, residues 1-351)
Sequence of UniProt P17106 (whole entry, looked up): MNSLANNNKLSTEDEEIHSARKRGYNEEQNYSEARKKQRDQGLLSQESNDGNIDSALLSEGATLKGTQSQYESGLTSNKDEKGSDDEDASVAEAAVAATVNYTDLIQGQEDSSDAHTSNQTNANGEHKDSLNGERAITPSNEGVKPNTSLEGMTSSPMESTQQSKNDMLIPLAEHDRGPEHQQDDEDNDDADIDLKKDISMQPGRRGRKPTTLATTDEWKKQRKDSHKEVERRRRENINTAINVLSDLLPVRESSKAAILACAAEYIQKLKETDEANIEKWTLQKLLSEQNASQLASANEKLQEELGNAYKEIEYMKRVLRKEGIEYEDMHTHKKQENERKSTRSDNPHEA
Notes: whole 60-bp probe, lowest competitor level
Oligonucleotide	fluorescence intensity [a.u.]
TAATTTGTAGTATTGAACGTGACGGGAAACAAAAAA	409
GTCTTGTCTCATTGACATGTGGGTGTCCCCACTTCA	100
AACGATGCCCTTACCCACGTTATTGTTGTATAATTC	99.2
GCCTCCATATTACTCACCGTGCCAGACCCATTGTCG	63.6
AAAGCGGTAATTTGTGGAGTGGGTGCAGATATCTAT	77.8
CTTCTGTAAATTTGGACTGTGGGTGGACGCGCCCCG	84.2
TTTTTTCAGATGGAGACTGTGATGGGGTAGCGCTTG	64.9
CTTTCCCGATCTTGGTATGTGGGTGTAGCACATTTG	76.4
CTTCTGTAAATTTGGTGGGTGGGTGGACGCGCCCCG	104
CGTAAGAAAGGCCATCACGTGTGGAGGGGAGAGCTC	1940
CTAACGAAGGTTTTTCACGTGCTGTACAAGCCAAGT	1160
TTTACAAGCCAGAAAGCCGTGATGGCTTGATTATCA	65
GCTGCTGGCTAAAATAGTGTGACGAAACGTACATAG	85.3
ACCGTATTTGCTCCTCACGTGTCCAGTAGGTTTCGG	2090
TGCGATTCAGGTCTCAACGTGCAAAGTGCAGGAGCA	74.3
CGTTCTTAGCTGGTTCATGTGGATAAACATCTAAAG	87.2
TTAGTCTGTAACCAACACGTGCAAAGGGTAAATAGA	1900
GGGCTACGGCGAGCGCACGCGCATACGTTGACCGCA	61.6
GCTTTCAGGCACTAAGACGTGCAAAGATATAAGCCA	63.7

Block 3 — method: protein-binding microarray; form: double-stranded DNA, one strand shown; matrix: in vitro; tested at: 250 nM; notes: 60-bp whole probe; together with: salmon DNA 0.4 mg/ml; baseline: random background probes; direction: higher = stronger binding; shared flanks, not repeated: GCCTAGCAC … GTCTTGATTCGCTTGACGCTGCTG
Target: Interferon regulatory factor 7, full length, phosphomimetic (IRF7, Homo sapiens, UniProt Q92985, residues 1-503, S101K/S471D/S472D/S475D/S476D/S477D/S483D/S484D/S487D)
Sequence of UniProt Q92985 (whole entry, unmodified, looked up): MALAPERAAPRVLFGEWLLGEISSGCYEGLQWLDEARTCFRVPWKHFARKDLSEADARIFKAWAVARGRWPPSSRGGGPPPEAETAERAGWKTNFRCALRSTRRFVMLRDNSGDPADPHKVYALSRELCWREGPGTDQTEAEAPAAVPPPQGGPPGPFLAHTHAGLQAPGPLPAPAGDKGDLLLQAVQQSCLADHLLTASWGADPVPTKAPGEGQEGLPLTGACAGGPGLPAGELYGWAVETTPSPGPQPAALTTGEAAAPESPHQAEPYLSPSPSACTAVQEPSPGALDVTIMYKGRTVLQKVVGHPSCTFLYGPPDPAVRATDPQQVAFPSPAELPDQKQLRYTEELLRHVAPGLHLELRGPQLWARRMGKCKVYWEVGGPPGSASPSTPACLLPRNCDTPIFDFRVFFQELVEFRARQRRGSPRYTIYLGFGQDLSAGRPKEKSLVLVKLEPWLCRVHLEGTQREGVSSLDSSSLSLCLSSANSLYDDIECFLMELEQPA
Oligonucleotide	log fluorescence [z-score]
CTACTTCTCTTTTGGCTTTCGTGCTAG	2.52
GACGATATCAGTTTCGAGACGTGCTAG	4.39
TTAGGACTGCTTATCCGTTAGTGCTAG	0.0645
TCATTTTTCTGCTTAGAACTGTGCTAG	1.42
TTAGGTATCGGGTTTGGGTTAGTGCTA	1.56
GGTAGGCGGGGCCCCTGGCCGTGCTAG	-0.362
TTAGATTTCAGCCTCGATTAGTGCTAG	0.241
ATCTCTTTCCTTACTTCCCAGTGCTAG	2.36
TTAGATATCAATTTCGATTAGTGCTAG	1.64
TTAGGTCTCGGATTCGGTTAGTGCTAG	5.21
AGCTCCCTTTCTCTCTGTGAGTGCTAG	0.659
TTAGGTTTCCTTATCCTTCAGTGCTAG	3.01
GACGGTTTCGGTCTCGGCACGTGCTAG	7.24
GACGGACTGGACTTTCGAGACGTGCTA	-0.361
CCCAGTCTCATATTTATTAGGTGCTAG	0.659
CAGGGTCTCGCTTCATCTCCGTGCTAG	2.83
TCAGATATTAAACTGATACTGTGCTAG	0.0139
TTGGATATCAGTCTCGATTAGTGCTAG	1.54
CTTGTTTTACAATTTGCTTTGTGCTAG	1.21
GACGGTTTTGACTTTCGGGACGTGCTA	1.96
TTAGGACTTGGACTGGGTTAGTGCTAG	0.196
TCATGTTTTTTTCTATAACTGTGCTAG	1.1
TCACAGCTATTTTTAGGACTGTGCTAG	-0.433
GACGGACTGCTTCTCCCGACGTGCTAG	-0.1
GACGGTTTCGGGTATCGGGTCGTGCTA	7.82

Block 4 — method: protein binding microarray; form: double-stranded DNA, one strand shown; matrix: in vitro; tested at: not given; baseline: not given; direction: higher = stronger binding
Target: Histone acetyltransferase KAT6A, winged helix 2, GST fusion (KAT6A, Homo sapiens, UniProt Q92794, residues 85-181)
Notes: 8-mer, flanks averaged, mean of 2 arrays, mostly near background
Residues (chain): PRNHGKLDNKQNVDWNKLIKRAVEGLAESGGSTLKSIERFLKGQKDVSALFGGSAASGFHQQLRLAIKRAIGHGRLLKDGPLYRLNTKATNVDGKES
Oligonucleotide	E-score
GCCCATAA	0.00101
AACGCCGC	0.0457
CCAGATAA	0.00671
ACCGGCTG	0.166
GTACGGTA	-0.183
CATCACCC	-0.112
GACCGTAA	-0.0243
GCGTTGAC	-0.0214
GTTAATGA	-0.0369
ACGCTATG	-0.164
CGTGGGAA	-0.0361
TCAAGGAA	-0.0381
TCATATAA	-0.0354
CTACTATA	-0.106
CAAGCGTG	0.0368
ACAGATAG	-0.133
CGGAGTCC	0.195
CGCATCCA	0.0342
ATAATAAT	0.104
ATAGTCTA	-0.124
AACGCAGC	0.213
